Published values gathered from unrelated publications.
Parts stem from different laboratories: compare values within a part only.

Series 1
Target: Fragile X messenger ribonucleoprotein 1, C-terminal low-complexity region (Fmr1, Mus musculus, UniProt P35922)
Technique: RNA Bind-n-Seq
Form: RNA
Matrix: in vitro
Tested at: 200 nM
Setting: whole 134-nt RNA, ends assumed
Added: 150 mM KCl
Reference: input library
Direction: higher = stronger binding
Shared flanks, not repeated: GGGAGUUCUACAGUCCGACGAUC … UGGAAUUCUCGGGUGUCAAGG
For `CUCAAGUCCUGUGCUACACAUCGUAUGUACCGAAUCGGUGGUUUGGAAAAAGGAAAGUAUUAUGUUACGCCGUUCGGAUCUGCACUUCCA`, the log2 enrichment was -0.132.
For `GUCCUGUGCUACACAUCGUAUGUACCGAAUCGGGGAAAAAGGAAAAAGGAAAAAGGGGAAAGUAUUAUGUUACGCCGUUCGGAUCUGCAC`, the log2 enrichment was -0.29.
With `UUCAAGGAAAAACAAGAGGAGCAGGCUCGCCUCCUUGAUGAACUGGCAGGCAAGCUACAAAGCCUAGACCUUUCAGCCGCUGCCGAAAUG` the log2 enrichment was -1.36.
The log2 enrichment of `CACAGACAACACGCACCCACACAGACACAGAGGGAAGGGCUUGGGAUGGGGACAGGGUGCACAGCAGGGCGGGGUAGGACCCCAGCCCCU` is reported as 1.35.
The log2 enrichment of `GCAGGAAAUAAAAACAAAUGGAAAUGCUUCGGAUAGUGGCAGGGGUGGGGGUUGCUAAGGAAAGGGUGGGAUGGGAGUGGGUAAAGAGUU` is reported as 0.36.
The log2 enrichment of `CACAGACAACACGCACCCACACAGACACAGAGGAAAGGGGUUGGGAUGGGGACAGGGUGCACAGCAGGGCGGGGUAGGACCCCAGCCCCU` is reported as 1.17.
`UGGCCCUGGUGGCAUGCGGGGAGGAAGAGGUGGCCUCAUGGAUCGUGGUGGUCCCGGUGGAAUGUUCAGAGGUGGCCGUGGUGGAUACAG` has a log2 enrichment of 0.107.
`UGGGAGGUGGAUUUUGUUUAUUUUUUUAGCUCAUUUCCAGGGGGGGGAAUUUUUUUUUAAUAUGUGUCAUGAAUAAAGUUGUUUUUGAAA` gave a log2 enrichment of 0.318.
`GCAGGAAGUAAAAACAAAUGGAAAUGCUUCGGAUAGUGGCAGGGGUGGGGGUUGCUAAGGAAAGGGUGGGAAAAGAGUGGGUAAAGAGUU` has a log2 enrichment of 0.321.

Series 2
Target: Histone acetyltransferase KAT6A, both winged helices, GST fusion (KAT6A, Homo sapiens, UniProt Q92794, residues 1-181)
Technique: protein binding microarray
Form: double-stranded DNA, one strand shown
Matrix: in vitro
Tested at: not given
Setting: 8-mer, flanks averaged, mean of 2 arrays, mostly near background
Reference: not given
Direction: higher = stronger binding
Residues (chain): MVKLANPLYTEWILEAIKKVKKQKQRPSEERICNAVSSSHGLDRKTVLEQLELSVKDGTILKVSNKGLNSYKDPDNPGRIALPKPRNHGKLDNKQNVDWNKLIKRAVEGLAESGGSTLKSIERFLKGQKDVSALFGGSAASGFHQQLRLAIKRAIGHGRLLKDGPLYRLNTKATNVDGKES
The E-score of `ATAAAATC` is reported as 0.0211.
`AGCGGGGA` has an E-score of 0.182.
The E-score of `GCTTCACA` is reported as -0.0113.
For `ACGGCCCT`, the E-score was 0.0521.
With `CCCCAGTC` the E-score was -0.238.
The E-score of `AGAACCTC` is reported as 0.0697.
With `ACCGGTAA` the E-score was 0.262.
`AGGAAACG` gave an E-score of -0.0538.
`GGGACAAA` gave an E-score of -0.044.
`GCAAGTCC` gave an E-score of -0.0484.
For `AATTCGTG`, the E-score was -0.0765.
`GATCACAC` gave an E-score of -0.0737.
The E-score of `GTATGCAC` is reported as -0.0678.
For `GACATGTC`, the E-score was 0.143.
`CCACGGCG` has an E-score of 0.338.
The E-score of `CCGAAAGC` is reported as 0.0459.
The E-score of `AAGTCTCC` is reported as -0.125.
For `CGACTCCG`, the E-score was 0.117.
The E-score of `CGACCCAC` is reported as -0.0557.
`ACACAGGT` has an E-score of -0.138.
With `CCCTTTAA` the E-score was 0.00047.
`AATGAAGC` gave an E-score of -0.109.
`ACCATTAG` has an E-score of -0.0217.
For `GTGTCTCA`, the E-score was -0.0735.
`AAGGGGCG` gave an E-score of 0.115.

Series 3
Target: Prothrombin, mature alpha-thrombin (F2, Homo sapiens, UniProt P00734)
Technique: aptamer microarray, sandwich
Form: DNA with 2'F-ANA
Matrix: in vitro
Tested at: 200 nM
Setting: whole 15-mer aptamer, many near background
Added: Cy3 exosite-II aptamer, 400 nM
Direction: higher = stronger binding
Oligonucleotide: GGTTGGTGTGGTTGG
Under “mean fluorescence intensity”, `2'F-ANA at 2 3 4 6 8 11 12 13 14 15` is recorded as 252 a.u.
For `2'F-ANA at 2 4 5 7 8 10 12 13 15`, “mean fluorescence intensity” read 52.3 a.u.
For `2'F-ANA at 1 2 4 6 7 8 9 10 11 12 14 15`, “mean fluorescence intensity” read 53.3 a.u.
For `2'F-ANA at 1 5 6 7 9 10 12 14 15`, “mean fluorescence intensity” read 45.1 a.u.
`2'F-ANA at 1 4 5 7 15`: “mean fluorescence intensity” 61.4 a.u.
For `2'F-ANA at 1 5 7 8 9`, “mean fluorescence intensity” read 68.5 a.u.
`2'F-ANA at 3 5 6 8 9 10 11 12`: “mean fluorescence intensity” 103 a.u.
`2'F-ANA at 1 2 3 5 7 9 10 11 13 14 15`: “mean fluorescence intensity” 49.2 a.u.
`2'F-ANA at 1 3 5 7 8 13 15`: “mean fluorescence intensity” 72.5 a.u.
`2'F-ANA at 2 3 4 6 8 10 11 12 13 15` — result for “mean fluorescence intensity”: 176 a.u.
`2'F-ANA at 1 6 7 9 10 11 14 15`: “mean fluorescence intensity” 50.3 a.u.
`2'F-ANA at 1 6 10 11 14 15`: “mean fluorescence intensity” 50.5 a.u.
`2'F-ANA at 5 7 9 11 12 13 14 15` — result for “mean fluorescence intensity”: 52.3 a.u.
`2'F-ANA at 2 6 7 9 11 12`: “mean fluorescence intensity” 474 a.u.
`2'F-ANA at 1 8 10 14 15`: “mean fluorescence intensity” 53.1 a.u.
For `2'F-ANA at 4 7 11 12 15`, “mean fluorescence intensity” read 504 a.u.
Under “mean fluorescence intensity”, `2'F-ANA at 1 2 3 5 6 7 10 11 13 14 15` is recorded as 70.4 a.u.
For `2'F-ANA at 8 10 14 15`, “mean fluorescence intensity” read 106 a.u.
Under “mean fluorescence intensity”, `2'F-ANA at 4 5 8 9 11 12 15` is recorded as 102 a.u.
`2'F-ANA at 3 7 8 10 11 12 13`: “mean fluorescence intensity” 601 a.u.
`2'F-ANA at 3 4 5 7 8 11 13 15` — result for “mean fluorescence intensity”: 69.8 a.u.
`2'F-ANA at 1 2 3 5 6 14` — result for “mean fluorescence intensity”: 47.6 a.u.
For `2'F-ANA at 1 2 4 5 7 9 10 12 13 15`, “mean fluorescence intensity” read 44.7 a.u.
For `2'F-ANA at 1 4 5 7 12`, “mean fluorescence intensity” read 108 a.u.

Series 4
Target: RNA binding protein fox-1 homolog 2, RRM domain, GST-SBP tag (RBFOX2, Homo sapiens, UniProt O43251-10, residues 100-194)
Technique: RNA Bind-n-Seq
Form: RNA
Matrix: in vitro
Tested at: 365 nM
Setting: natural RNA segment, single round, ends assumed
Reference: no-protein control
Direction: higher = stronger binding
Shared flanks, not repeated: GGGAGUUCUACAGUCCGACGAUC … UGGAAUUCUCGGGUGCCAA
Residues (chain): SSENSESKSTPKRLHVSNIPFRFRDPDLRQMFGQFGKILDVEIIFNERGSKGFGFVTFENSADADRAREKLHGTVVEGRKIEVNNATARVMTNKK
Under “RBNS enrichment (R)”, `ACGCCCUUGGCUUUAGAGCUGUGUUGAAAUCCAUUUUGGUGGUUGGUUUUUAACCCAAACUCAGUGCAUUUUUUAAAAUAGUUAAGAAUCCAAGUCGAGAACACUUGAAC` is recorded as 0.499.
`UGUGUGGGCCAUUGACUGCCUUGACCAGUAGAAGGGAUAACUAUUACACAGAUAGGCAGGCAGGGUGGCAGUCACCUCCCCUGUCCACGUGGAUCCAUCCCUGCCAUUGU`: “RBNS enrichment (R)” 0.2.
`AGAAAGAGCUCAAUUAUAGUAUUAACACCUUAAAGCCAAAACAUUUGUUCAACACAAACUACCAUCACACCUCUGACUUGAUAUUAUCAUGAGAAUGUGGAUGUACAAGU`: “RBNS enrichment (R)” 0.762.
`UACCCACGCCAUUUUACGUCUCCUUCACUGAAGGGCUAGAGUUUUAACUUUUAAUUUUUUAUAUUUAAAUGUAGACUUUUGACACUUUUAAAAAACAAAAAAUGACAAGA`: “RBNS enrichment (R)” 0.638.
Under “RBNS enrichment (R)”, `GGCUUGUGAGUGAUUUUUGUCCAUUCAAUUGUGCCUUCUUUGUAUUAUGAUAAGAUGGGGGUACUUAAGGAGAUCACAAGUUGUGUGAGGAUUGCAUUAACAAACCUAUG` is recorded as 1.89.
Under “RBNS enrichment (R)”, `UAUUCAGUGUUUAUUUCCUUAAACAGACUUUGUUAAUUUAGGAAAUAUCUCCAAGUGGAAACGUGCUAACUUUCUGUAAAUCUUAAAUAAAAGGUGCUGUUCCUUCCUCU` is recorded as 0.193.
`AAGAUUUAGGCACUCCAAGAGAGUAUGACUUCGUGUUUAAUUGGGGAGCUUGUUUUCAACAUUGCUUAUAUUUGAAUAGUAGAAAACCCGACAUUGAUGUUUCUUCCUGU`: “RBNS enrichment (R)” 0.375.
Under “RBNS enrichment (R)”, `CGCAGGCAUCUUGACAUCUUAGUAACUGCCUUUUUAAUCCCAGUGGCCUGUACCAUAUUAUGGAGAACUGUUAACUGCUUAAUUGGGUAAUUUUCAAAGAAAGUGAUGUU` is recorded as 0.325.

Repeated from above (series 3):
`2'F-ANA at 1 4 5 7 15`: “mean fluorescence intensity” 61.4 a.u.
`2'F-ANA at 1 3 5 7 8 13 15`: “mean fluorescence intensity” 72.5 a.u.
For `2'F-ANA at 2 4 5 7 8 10 12 13 15`, “mean fluorescence intensity” read 52.3 a.u.
`2'F-ANA at 2 3 4 6 8 10 11 12 13 15` — result for “mean fluorescence intensity”: 176 a.u.
For `2'F-ANA at 1 2 4 6 7 8 9 10 11 12 14 15`, “mean fluorescence intensity” read 53.3 a.u.
`2'F-ANA at 1 6 7 9 10 11 14 15`: “mean fluorescence intensity” 50.3 a.u.
`2'F-ANA at 2 6 7 9 11 12`: “mean fluorescence intensity” 474 a.u.
`2'F-ANA at 1 2 3 5 6 14` — result for “mean fluorescence intensity”: 47.6 a.u.
`2'F-ANA at 5 7 9 11 12 13 14 15` — result for “mean fluorescence intensity”: 52.3 a.u.
For `2'F-ANA at 1 5 6 7 9 10 12 14 15`, “mean fluorescence intensity” read 45.1 a.u.
